Assay results from different studies.
A part holds a random share of what one study measured. Values joined by “and” are separate records of one study, mostly repeats; a detail may differ.
Chain of UniProt Q9Y6E0 (whole entry, looked up): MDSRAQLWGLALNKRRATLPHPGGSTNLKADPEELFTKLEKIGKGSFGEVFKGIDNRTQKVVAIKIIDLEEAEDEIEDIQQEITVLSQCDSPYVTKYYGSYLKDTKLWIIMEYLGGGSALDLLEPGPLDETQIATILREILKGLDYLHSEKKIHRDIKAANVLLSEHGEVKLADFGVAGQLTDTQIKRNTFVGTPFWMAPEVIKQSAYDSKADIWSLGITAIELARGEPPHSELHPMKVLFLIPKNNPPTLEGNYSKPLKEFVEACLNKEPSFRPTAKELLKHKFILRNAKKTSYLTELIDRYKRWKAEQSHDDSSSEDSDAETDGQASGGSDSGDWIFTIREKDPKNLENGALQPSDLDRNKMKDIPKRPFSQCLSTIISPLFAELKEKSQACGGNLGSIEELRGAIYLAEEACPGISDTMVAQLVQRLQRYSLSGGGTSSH
Chain of UniProt P49840 (whole entry, looked up): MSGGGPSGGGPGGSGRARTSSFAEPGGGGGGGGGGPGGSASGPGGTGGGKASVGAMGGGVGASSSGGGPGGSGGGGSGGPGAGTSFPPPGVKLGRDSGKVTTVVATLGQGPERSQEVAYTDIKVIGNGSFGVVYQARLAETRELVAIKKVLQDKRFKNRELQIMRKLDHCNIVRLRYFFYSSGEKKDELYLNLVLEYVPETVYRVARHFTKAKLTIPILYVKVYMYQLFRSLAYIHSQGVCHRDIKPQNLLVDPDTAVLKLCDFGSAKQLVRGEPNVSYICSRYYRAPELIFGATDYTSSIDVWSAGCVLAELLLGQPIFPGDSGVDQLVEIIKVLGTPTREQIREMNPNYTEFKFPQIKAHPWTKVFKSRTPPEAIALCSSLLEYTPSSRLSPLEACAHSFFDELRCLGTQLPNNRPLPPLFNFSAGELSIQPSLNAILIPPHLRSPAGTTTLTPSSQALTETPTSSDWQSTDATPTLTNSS
Chain of UniProt P31749 (whole entry, looked up): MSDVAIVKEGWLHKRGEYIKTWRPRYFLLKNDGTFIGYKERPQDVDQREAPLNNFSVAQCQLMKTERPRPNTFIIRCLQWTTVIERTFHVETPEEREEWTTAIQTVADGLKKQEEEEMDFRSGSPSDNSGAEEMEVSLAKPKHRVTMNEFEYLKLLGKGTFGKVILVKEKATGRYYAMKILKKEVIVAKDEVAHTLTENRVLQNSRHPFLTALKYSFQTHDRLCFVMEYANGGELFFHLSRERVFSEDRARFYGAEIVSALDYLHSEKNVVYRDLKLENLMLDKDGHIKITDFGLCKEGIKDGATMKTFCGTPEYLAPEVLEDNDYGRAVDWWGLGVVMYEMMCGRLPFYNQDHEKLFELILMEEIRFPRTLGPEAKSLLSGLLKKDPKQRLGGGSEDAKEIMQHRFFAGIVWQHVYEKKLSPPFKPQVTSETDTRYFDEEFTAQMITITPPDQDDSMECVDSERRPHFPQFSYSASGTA
Chain of UniProt P15735 (whole entry, looked up): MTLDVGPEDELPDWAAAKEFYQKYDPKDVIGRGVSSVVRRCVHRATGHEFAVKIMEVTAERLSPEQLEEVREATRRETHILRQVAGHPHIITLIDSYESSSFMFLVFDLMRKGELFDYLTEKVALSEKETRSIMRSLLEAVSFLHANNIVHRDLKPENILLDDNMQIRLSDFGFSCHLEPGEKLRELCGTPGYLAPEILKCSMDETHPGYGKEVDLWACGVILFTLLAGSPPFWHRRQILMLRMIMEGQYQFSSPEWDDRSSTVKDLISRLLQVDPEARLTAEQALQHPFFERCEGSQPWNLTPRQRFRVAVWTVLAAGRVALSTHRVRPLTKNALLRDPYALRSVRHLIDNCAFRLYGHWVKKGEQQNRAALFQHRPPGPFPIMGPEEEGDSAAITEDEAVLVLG
Chain of UniProt P06213 (whole entry, looked up): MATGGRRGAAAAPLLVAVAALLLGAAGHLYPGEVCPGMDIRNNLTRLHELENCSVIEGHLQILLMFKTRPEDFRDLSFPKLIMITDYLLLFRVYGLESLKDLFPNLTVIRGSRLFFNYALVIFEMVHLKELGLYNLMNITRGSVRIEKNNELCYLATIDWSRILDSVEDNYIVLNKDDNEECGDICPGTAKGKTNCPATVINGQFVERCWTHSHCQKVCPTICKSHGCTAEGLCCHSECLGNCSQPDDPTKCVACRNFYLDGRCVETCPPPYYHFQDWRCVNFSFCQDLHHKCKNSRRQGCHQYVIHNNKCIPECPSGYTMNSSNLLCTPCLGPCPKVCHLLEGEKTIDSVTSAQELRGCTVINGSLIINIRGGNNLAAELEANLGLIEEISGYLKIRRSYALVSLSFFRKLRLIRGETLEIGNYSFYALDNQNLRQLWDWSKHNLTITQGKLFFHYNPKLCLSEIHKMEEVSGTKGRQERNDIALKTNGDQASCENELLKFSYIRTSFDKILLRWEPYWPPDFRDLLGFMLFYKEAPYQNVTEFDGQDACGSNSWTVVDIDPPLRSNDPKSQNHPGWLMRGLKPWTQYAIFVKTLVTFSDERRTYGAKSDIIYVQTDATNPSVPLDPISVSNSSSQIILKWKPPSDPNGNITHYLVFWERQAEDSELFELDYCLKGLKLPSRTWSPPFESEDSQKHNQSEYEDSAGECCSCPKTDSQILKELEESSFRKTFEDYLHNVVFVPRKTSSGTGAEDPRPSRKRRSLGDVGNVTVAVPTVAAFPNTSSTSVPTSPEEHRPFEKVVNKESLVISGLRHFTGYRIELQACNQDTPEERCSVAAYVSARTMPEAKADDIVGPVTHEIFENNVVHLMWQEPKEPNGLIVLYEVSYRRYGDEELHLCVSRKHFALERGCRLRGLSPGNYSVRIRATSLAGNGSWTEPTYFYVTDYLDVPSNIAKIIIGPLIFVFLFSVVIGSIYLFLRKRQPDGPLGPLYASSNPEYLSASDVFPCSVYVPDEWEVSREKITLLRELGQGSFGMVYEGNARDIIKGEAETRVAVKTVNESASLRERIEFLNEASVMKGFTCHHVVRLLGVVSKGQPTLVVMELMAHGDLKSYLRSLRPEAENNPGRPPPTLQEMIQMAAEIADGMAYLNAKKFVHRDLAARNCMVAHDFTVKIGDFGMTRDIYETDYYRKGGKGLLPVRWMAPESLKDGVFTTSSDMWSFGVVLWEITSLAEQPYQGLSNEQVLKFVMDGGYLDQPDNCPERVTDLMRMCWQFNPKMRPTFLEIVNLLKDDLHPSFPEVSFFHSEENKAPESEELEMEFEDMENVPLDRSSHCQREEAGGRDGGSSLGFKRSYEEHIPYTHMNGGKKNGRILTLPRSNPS
Chain of UniProt Q02750 (whole entry, looked up): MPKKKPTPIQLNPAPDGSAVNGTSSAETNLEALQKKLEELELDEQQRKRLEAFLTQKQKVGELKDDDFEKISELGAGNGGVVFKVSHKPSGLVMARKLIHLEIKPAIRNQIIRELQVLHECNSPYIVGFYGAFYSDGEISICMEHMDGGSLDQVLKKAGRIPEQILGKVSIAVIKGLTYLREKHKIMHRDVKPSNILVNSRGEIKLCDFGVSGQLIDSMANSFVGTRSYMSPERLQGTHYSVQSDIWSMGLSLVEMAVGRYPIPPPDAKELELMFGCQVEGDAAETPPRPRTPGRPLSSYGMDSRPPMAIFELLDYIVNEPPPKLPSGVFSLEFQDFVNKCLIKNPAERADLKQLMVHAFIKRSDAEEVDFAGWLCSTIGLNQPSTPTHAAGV
Chain of UniProt Q8IU85 (whole entry, looked up): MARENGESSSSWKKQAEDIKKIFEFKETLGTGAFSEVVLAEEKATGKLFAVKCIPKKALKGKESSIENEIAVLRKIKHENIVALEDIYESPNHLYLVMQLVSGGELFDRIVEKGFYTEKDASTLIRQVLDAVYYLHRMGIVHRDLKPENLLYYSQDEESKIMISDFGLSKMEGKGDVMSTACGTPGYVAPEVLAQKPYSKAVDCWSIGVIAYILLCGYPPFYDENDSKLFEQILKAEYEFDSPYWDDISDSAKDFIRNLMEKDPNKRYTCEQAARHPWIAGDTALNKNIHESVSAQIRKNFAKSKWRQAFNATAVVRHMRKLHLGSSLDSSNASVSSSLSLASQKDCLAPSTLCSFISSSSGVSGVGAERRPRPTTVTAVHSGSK

Sample 1
Effect on: necroptosis
Mode: inhibitor
Technique: CCK-8
Cell line: L929
Species: mouse
Added: TNF-α
| SMILES | EC50 |
| --- | --- |
| Cc1c(NC(=O)c2cccn(-c3ccc(F)cc3)c2=O)ccc(Oc2ccnc(NC(=O)C3CC3)c2)c1C | 1.07 µM |
| Cc1cc(-c2cnc(N)c3c(-c4ccc5scnc5c4)csc23)n(C)n1 | 3.29 µM |
| CC(C)(C)n1nc(-c2ccc(Cl)cc2)c2c(N)ncnc21 | 5.13 µM |

Sample 2
SMILES: Cc1nc(C)c(C=[N+]([O-])C(C)(C)C)nc1C
Technique: footprint test
Species: MPTP-induced Parkinson's disease mouse model
| dose | setting | corridor crossing time |
| --- | --- | --- |
| 30 mg/kg |  | 5.14 s and 6.09 s and 5.36 s and 6.45 s and 5.65 s and 5.33 s and 5.06 s and 7.54 s |
| 30 mg/kg | trial 1 | 5.5 s and 6.08 s and 9.05 s and 5.97 s and 5.16 s and 4.78 s and 8.74 s and 4.85 s |
| 10 mg/kg | trial 2 | 6.22 s and 6.73 s and 7.85 s and 7.13 s and 4.99 s and 9.21 s and 5.22 s |
| 90 mg/kg | trial 3 | 5.6 s and 7.13 s and 5.23 s and 4.47 s and 4.24 s and 6.09 s and 5.22 s |
| 90 mg/kg | trial 2 | 5.13 s and 4.69 s and 6.62 s and 6.03 s and 5.73 s and 5.87 s and 6.13 s and 7.1 s |
| 30 mg/kg | trial 2 | 6.33 s and 5.22 s and 6.09 s and 6.73 s and 5.72 s and 5.49 s and 6.12 s and 4.75 s |
| 90 mg/kg | mean of three trials | 5.49 s and 5.15 s and 6.41 s and 5.31 s and 5.16 s and 7.41 s and 6.6 s and 7.14 s |
| 10 mg/kg | mean of three trials | 4.98 s and 6.06 s and 5.6 s and 5.52 s and 6.26 s and 6.07 s and 6.37 s and 3.97 s |

Sample 3
SMILES: CN(C1COC1)C(C)(C)/C=C(\C#N)C(=O)N1CCC[C@H]1Cn1nc(-c2ccc(Oc3ccccc3)cc2F)c2c(N)ncnc21
Effect on: kinase activity
| target | tested at | inhibition |
| --- | --- | --- |
| AKT1 (Homo sapiens, UniProt P31749) | 0.1 µM | 1% |
| PHKG2 (Homo sapiens, UniProt P15735) | 1 µM | 1% |
| MAP2K1 (Homo sapiens, UniProt Q02750) | 1 µM | -4% |
| CAMK1D (Homo sapiens, UniProt Q8IU85) | 1 µM | 4% |
| STK24 (Homo sapiens, UniProt Q9Y6E0) | 0.1 µM | 3% |
| GSK3A (Homo sapiens, UniProt P49840) | 1 µM | -4% |
| SYK (Homo sapiens, UniProt P43405) | 1 µM | 0% |
| Insulin receptor (INSR, Homo sapiens, UniProt P06213) | 0.1 µM | 4% |

Mixed results
| Compound | species | matrix | route | dose | measurement | value |
| --- | --- | --- | --- | --- | --- | --- |
| Cn1cc(-c2cccc(CN3CCC4(CC3)COc3c4ccc4c3CN([C@H]3CCC(=O)NC3=O)C4=O)c2)cn1 | rat | plasma | intravenous | 1.02 mg/kg | clearance | 20.4 mL/min/kg |

Excerpt of the above (sample 3):
| target | tested at | inhibition |
| --- | --- | --- |
| AKT1 (Homo sapiens, UniProt P31749) | 0.1 µM | 1% |
| PHKG2 (Homo sapiens, UniProt P15735) | 1 µM | 1% |
